{"data": "Measurements gathered from unrelated publications", "note": "Parts stem from different laboratories: compare values within a part only.", "chain of UniProt Q9H0K1 (whole entry, looked up)": "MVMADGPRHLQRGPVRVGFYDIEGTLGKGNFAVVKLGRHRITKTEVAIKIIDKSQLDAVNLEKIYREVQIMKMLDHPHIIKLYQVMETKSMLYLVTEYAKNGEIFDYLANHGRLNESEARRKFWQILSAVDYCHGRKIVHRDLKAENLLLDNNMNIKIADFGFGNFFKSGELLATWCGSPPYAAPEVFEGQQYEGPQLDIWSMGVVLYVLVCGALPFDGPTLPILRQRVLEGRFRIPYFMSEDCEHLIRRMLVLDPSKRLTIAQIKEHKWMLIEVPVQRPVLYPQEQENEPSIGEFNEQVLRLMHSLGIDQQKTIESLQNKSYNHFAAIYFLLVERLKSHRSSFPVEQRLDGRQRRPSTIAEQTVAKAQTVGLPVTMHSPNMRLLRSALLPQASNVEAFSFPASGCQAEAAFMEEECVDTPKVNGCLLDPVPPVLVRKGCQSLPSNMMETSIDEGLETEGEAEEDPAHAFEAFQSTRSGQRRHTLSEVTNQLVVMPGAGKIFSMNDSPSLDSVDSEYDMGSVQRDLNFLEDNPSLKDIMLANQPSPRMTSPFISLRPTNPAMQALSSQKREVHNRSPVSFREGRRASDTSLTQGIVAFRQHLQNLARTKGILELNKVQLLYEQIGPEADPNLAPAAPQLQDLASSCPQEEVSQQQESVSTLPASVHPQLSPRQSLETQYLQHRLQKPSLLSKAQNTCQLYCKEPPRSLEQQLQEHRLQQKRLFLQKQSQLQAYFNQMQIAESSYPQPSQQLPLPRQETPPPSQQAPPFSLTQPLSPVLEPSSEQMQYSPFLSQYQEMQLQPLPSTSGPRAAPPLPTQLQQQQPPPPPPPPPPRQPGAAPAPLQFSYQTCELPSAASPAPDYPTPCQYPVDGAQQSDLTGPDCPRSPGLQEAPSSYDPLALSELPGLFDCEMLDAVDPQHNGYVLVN", "chain of UniProt Q9Y6M4 (whole entry, looked up)": "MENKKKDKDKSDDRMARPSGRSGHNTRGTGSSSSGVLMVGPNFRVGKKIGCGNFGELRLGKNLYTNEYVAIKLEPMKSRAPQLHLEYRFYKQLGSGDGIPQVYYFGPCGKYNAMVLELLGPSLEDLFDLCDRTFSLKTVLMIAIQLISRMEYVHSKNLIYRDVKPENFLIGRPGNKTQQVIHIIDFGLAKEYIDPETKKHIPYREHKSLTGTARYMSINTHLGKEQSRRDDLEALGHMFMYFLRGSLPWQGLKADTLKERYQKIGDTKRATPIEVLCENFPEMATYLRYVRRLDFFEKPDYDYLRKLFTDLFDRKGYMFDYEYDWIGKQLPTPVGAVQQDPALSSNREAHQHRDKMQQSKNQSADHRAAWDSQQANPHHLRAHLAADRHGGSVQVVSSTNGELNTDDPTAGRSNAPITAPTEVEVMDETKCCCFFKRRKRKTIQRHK", "chain of UniProt Q8IYT8 (whole entry, looked up)": "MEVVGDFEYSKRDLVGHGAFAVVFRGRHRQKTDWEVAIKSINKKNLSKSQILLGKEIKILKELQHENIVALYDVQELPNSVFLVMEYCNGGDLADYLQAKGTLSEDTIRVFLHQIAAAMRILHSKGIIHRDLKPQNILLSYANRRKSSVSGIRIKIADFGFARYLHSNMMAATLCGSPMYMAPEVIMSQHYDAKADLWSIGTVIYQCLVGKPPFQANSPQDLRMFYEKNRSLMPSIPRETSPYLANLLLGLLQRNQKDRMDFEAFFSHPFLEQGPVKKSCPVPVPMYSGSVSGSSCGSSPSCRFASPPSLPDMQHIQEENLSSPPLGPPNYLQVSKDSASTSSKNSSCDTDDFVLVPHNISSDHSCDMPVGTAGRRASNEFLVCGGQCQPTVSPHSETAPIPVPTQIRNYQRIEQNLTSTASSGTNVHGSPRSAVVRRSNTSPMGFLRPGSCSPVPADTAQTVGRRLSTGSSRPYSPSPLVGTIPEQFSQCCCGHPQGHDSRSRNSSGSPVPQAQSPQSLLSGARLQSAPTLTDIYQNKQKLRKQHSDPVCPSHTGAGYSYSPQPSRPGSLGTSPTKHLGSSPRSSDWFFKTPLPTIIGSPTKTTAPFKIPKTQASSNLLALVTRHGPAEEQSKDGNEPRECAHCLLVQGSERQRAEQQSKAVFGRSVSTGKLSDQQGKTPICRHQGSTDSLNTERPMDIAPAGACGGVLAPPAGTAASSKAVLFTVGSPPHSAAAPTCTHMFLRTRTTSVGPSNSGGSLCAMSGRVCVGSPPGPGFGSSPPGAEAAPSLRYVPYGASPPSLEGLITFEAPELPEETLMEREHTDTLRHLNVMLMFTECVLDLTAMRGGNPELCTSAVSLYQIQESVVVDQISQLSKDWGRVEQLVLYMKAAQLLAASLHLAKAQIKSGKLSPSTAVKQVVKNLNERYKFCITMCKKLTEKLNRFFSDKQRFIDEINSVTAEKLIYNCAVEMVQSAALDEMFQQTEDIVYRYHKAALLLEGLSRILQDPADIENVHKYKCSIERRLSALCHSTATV", "chain of UniProt P27361 (whole entry, looked up)": "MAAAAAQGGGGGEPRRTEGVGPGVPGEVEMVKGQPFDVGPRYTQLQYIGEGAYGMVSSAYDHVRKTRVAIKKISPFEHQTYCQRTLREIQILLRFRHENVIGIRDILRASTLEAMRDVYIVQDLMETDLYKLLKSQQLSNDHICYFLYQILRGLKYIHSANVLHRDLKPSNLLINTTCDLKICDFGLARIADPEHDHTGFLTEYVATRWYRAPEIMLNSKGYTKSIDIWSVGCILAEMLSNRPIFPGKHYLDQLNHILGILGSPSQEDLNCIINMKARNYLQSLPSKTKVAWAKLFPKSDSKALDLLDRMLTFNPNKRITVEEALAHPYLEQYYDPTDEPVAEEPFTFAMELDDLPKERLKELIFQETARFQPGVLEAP", "chain of UniProt P22607 (whole entry, looked up)": "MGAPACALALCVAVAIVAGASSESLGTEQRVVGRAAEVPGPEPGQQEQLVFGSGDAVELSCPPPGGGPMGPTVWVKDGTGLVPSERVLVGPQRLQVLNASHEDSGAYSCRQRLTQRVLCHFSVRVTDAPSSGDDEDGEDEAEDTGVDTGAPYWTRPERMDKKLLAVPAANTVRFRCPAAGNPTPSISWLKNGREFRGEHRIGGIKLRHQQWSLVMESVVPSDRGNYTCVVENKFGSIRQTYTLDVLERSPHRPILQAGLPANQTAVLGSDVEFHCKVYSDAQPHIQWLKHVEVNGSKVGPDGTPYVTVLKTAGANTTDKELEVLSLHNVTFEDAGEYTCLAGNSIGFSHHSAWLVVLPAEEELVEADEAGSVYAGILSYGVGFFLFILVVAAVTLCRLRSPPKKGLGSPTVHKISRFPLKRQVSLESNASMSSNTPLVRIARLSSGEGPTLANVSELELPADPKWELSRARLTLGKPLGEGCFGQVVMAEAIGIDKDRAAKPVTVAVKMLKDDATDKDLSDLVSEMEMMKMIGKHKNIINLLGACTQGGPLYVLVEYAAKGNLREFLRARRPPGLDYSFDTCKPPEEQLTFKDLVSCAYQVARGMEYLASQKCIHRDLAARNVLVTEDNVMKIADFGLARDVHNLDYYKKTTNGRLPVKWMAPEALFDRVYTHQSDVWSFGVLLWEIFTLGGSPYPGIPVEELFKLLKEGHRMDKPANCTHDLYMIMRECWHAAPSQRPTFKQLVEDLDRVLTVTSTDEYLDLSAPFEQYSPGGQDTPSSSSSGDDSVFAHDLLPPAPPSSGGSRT", "chain of UniProt Q9HC98 (whole entry, looked up)": "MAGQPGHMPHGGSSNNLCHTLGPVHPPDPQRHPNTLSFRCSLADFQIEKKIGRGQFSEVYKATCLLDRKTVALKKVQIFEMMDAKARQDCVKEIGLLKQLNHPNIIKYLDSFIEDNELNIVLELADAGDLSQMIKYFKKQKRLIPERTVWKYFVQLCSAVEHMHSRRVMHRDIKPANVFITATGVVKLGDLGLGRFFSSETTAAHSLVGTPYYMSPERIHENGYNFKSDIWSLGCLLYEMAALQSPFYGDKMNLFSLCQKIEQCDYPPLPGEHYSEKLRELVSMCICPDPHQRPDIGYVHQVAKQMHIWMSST", "chain of UniProt P49841 (whole entry, looked up)": "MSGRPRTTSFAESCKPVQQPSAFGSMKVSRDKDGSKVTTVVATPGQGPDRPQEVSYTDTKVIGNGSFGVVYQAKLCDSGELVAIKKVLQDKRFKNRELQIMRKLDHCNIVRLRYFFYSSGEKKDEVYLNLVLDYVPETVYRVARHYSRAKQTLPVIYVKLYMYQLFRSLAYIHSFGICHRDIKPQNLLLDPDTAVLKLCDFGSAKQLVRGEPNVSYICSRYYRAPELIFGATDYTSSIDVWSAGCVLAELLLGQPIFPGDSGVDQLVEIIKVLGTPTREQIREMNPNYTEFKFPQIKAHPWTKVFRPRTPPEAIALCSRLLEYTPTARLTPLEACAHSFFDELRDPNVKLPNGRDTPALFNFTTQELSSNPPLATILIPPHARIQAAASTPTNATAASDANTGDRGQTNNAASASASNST", "chain of UniProt P30291 (whole entry, looked up)": "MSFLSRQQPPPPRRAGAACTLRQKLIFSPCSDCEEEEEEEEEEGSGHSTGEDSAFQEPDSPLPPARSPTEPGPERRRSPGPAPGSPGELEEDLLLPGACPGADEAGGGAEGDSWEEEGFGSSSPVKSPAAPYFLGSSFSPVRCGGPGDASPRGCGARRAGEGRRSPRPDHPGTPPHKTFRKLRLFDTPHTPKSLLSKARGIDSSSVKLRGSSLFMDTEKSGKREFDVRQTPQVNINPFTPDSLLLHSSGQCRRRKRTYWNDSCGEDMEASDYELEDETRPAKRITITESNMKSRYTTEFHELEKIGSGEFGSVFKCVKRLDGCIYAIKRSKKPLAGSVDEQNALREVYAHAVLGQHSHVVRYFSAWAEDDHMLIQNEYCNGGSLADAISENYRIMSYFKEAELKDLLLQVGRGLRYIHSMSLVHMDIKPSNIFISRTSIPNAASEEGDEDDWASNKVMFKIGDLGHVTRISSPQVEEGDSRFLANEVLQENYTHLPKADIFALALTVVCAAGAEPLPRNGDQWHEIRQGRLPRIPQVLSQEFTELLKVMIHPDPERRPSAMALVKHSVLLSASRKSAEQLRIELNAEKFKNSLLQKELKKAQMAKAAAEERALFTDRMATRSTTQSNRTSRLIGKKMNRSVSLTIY"}
{"data": "Sample 1", "target": "TAR DNA-binding protein 43, full length, His tag (TARDBP, Homo sapiens, UniProt Q13148, residues 1-414)", "method": "RNA Bind-n-Seq", "molecule type": "RNA", "sample": "in vitro", "concentration": "20 nM", "setting": "6-mer, flanks averaged, single round", "together with": "150 mM LiCl", "reference": "input library", "direction": "higher = stronger binding"}
{"Sequence": "GUUAGG", "6-mer enrichment (R)": 1.16}
{"Sequence": "UACCUU", "6-mer enrichment (R)": 0.962}
{"Sequence": "UACACU", "6-mer enrichment (R)": 0.862}
{"Sequence": "GACGCU", "6-mer enrichment (R)": 0.868}
{"Sequence": "CGUUUU", "6-mer enrichment (R)": 1.16}
{"Sequence": "GGGCAU", "6-mer enrichment (R)": 1.02}
{"Sequence": "CAGGUU", "6-mer enrichment (R)": 0.927}
{"Sequence": "CCUAAU", "6-mer enrichment (R)": 0.922}
{"data": "Sample 2", "Compound": "CC(C)n1cnc(-c2ccc(F)cc2)c1-c1ncc(C(=O)Nc2ccc(N3CCN(C)CC3)cc2)[nH]1", "method": "Phase 2a trial", "host": "idiopathic pulmonary fibrosis patients"}
{"assay": "measured: chest discomfort", "conditions": "30 mg once daily, grade 5 maximum intensity", "patients with adverse events [%]": 0}
{"assay": "measured: respiratory tract infection", "conditions": "dose not given, grade 4 maximum intensity, all arms", "patients with adverse events [%]": 0}
{"assay": "measured: oral herpes", "conditions": "oral, dose not given, grade 5 maximum intensity, all arms", "patients with adverse events [%]": 0}
{"assay": "measured: eye disorders (SOC)", "conditions": "30 mg once daily, grade 3 maximum intensity", "patients with adverse events [%]": 0}
{"data": "Sample 3", "cell line": "A-375", "concentration": "100 µM", "time": "18 h"}
{"SMILES": "CCOC(=O)[C@H](CCc1ccccc1)N[C@@H](C)C(=O)N1Cc2ccccc2C[C@H]1C(=O)O", "viability": "87.6%"}
{"SMILES": "CC(C)(Oc1ccc(C(=O)c2ccc(Cl)cc2)cc1)C(=O)O", "viability": "97.2%"}
{"SMILES": "O=C(O)[C@H]1O[C@H](O)[C@H](O)[C@@H](O)[C@@H]1O", "viability": "94.9%"}
{"SMILES": "CS(=O)(=O)Nc1ccc([N+](=O)[O-])cc1Oc1ccccc1", "viability": "90.3%"}
{"data": "Sample 4", "SMILES": "N#C/C(=C(/N)SC1C=CC=CC1)c1cccc(C(O)c2ccncc2)c1 (stereo not drawn)", "effect on": "enzyme activity", "mode": "inhibitor", "concentration": "0.5 µM", "reference": "control"}
{"target": "TBK1 (Homo sapiens, UniProt Q9UHD2)", "remaining activity [%]": 108}
{"target": "CSNK1G2 (Homo sapiens, UniProt P78368)", "remaining activity [%]": 98.8}
{"target": "MAPK3 (Homo sapiens, UniProt P27361)", "remaining activity [%]": 107}
{"target": "FGFR3 (Homo sapiens, UniProt P22607)", "remaining activity [%]": 96.3}
{"target": "FGFR1 (Homo sapiens, UniProt P11362)", "remaining activity [%]": 115}
{"target": "RPS6KA2 (Homo sapiens, UniProt Q15349)", "remaining activity [%]": 164}
{"target": "FRK (Homo sapiens, UniProt P42685)", "remaining activity [%]": 106}
{"target": "GRK7 (Homo sapiens, UniProt Q8WTQ7)", "remaining activity [%]": 108}
{"target": "MAPKAPK2 (Homo sapiens, UniProt P49137)", "remaining activity [%]": 101}
{"target": "WEE1 (Homo sapiens, UniProt P30291)", "remaining activity [%]": 70.9}
{"target": "ULK2 (Homo sapiens, UniProt Q8IYT8)", "remaining activity [%]": 114}
{"target": "MAP2K2 (Homo sapiens, UniProt P36507)", "remaining activity [%]": 84.4}
{"target": "ABL2 (Homo sapiens, UniProt P42684)", "remaining activity [%]": 105}
{"target": "GSK3B (Homo sapiens, UniProt P49841)", "remaining activity [%]": 95.7}
{"target": "MERTK (Homo sapiens, UniProt Q12866)", "remaining activity [%]": 99.7}
{"target": "NEK6 (Homo sapiens, UniProt Q9HC98)", "remaining activity [%]": 108}
{"target": "CSNK1G3 (Homo sapiens, UniProt Q9Y6M4)", "remaining activity [%]": 99.5}
{"target": "ACVR1B (Homo sapiens, UniProt P36896)", "remaining activity [%]": 104}
{"target": "MAP3K5 (Homo sapiens, UniProt Q99683)", "remaining activity [%]": 108}
{"target": "MST1R (Homo sapiens, UniProt Q04912)", "remaining activity [%]": 102}
{"target": "NEK1 (Homo sapiens, UniProt Q96PY6)", "remaining activity [%]": 85}
{"target": "ULK3 (Homo sapiens, UniProt Q6PHR2)", "remaining activity [%]": 127}
{"data": "Sample 5", "host": "human", "sample": "microsomes or S9", "concentration": "2 µM", "time": "0.5 h"}
{"Structure (SMILES)": "CN(Cc1ccc(F)cc1)Cc1ccc([N+](=O)[O-])cc1", "remaining compound [%]": 5.27}
{"Structure (SMILES)": "O=C(Cc1c[nH]c2ccccc12)N1CCc2cc(-c3ccno3)ccc21", "remaining compound [%]": 60.9}
{"Structure (SMILES)": "Cc1ccc(CN2C(=O)N(Cc3ccccc3)C(=O)C2CC(C)C)s1 (stereo not drawn)", "remaining compound [%]": 3.07}
{"data": "Sample 6", "Structure (SMILES)": "O=C(Nc1cccnn1)N1CC(C/C=C/c2cncc(Oc3ccc(C(F)(F)F)cn3)n2)C1", "effect on": "cell-free assay", "method": "competition with immobilised ligand", "concentration": "1 µM"}
{"target": "EGFR (Homo sapiens, UniProt P00533, L858R)", "remaining binding [%]": 97}
{"target": "DYRK1B (Homo sapiens, UniProt Q9Y463)", "remaining binding [%]": 100}
{"target": "SIK2 (Homo sapiens, UniProt Q9H0K1)", "remaining binding [%]": 100}
{"target": "WNK3 (Homo sapiens, UniProt Q9BYP7)", "remaining binding [%]": 84}
{"data": "Sample 7", "cell line": "mouse MPNST tumor cells", "method": "high-content immunofluorescence imaging", "measured": "nuclear SOX9", "concentration": "10 µM", "time": "12 h", "setting": "mean of 2 replicates", "reference": "DMSO control", "direction": "higher = more nuclear SOX9"}
{"Compound": "CCC(CC)(NC(=O)C(C)C)C(=O)N[C@@H](CCCN=C(N)N)C(=O)NC1(C(=O)NC(c2ccc(F)cc2)c2ccc(F)cc2)CCCC1", "nuclear SOX9 intensity": "96.1 % of DMSO"}
{"Compound": "COc1cc(-c2ccc(N=Nc3ccc4c(S(=O)(=O)O)cc(S(=O)(=O)O)c(N)c4c3O)c(OC)c2)ccc1N=Nc1ccc2c(S(=O)(=O)O)cc(S(=O)(=O)O)c(N)c2c1O", "nuclear SOX9 intensity": "99.3 % of DMSO"}
{"Compound": "CCC(=O)O[C@@H](O[P@](=O)(CCCCc1ccccc1)CC(=O)N1C[C@H](C2CCCCC2)C[C@H]1C(=O)O)C(C)C", "nuclear SOX9 intensity": "89.3 % of DMSO"}
{"note": "A few entries again (sample 1):"}
{"Sequence": "GUUAGG", "6-mer enrichment (R)": 1.16}
{"Sequence": "UACCUU", "6-mer enrichment (R)": 0.962}
{"Sequence": "UACACU", "6-mer enrichment (R)": 0.862}
{"Sequence": "GACGCU", "6-mer enrichment (R)": 0.868}
{"Sequence": "CGUUUU", "6-mer enrichment (R)": 1.16}
{"Sequence": "GGGCAU", "6-mer enrichment (R)": 1.02}
{"Sequence": "CAGGUU", "6-mer enrichment (R)": 0.927}
{"Sequence": "CCUAAU", "6-mer enrichment (R)": 0.922}
